{"data": "Measurements pooled from the literature", "note": "Numbered parts are unrelated; each lists some results of a single study.", "UniProt P06239, sequence (whole entry, looked up)": "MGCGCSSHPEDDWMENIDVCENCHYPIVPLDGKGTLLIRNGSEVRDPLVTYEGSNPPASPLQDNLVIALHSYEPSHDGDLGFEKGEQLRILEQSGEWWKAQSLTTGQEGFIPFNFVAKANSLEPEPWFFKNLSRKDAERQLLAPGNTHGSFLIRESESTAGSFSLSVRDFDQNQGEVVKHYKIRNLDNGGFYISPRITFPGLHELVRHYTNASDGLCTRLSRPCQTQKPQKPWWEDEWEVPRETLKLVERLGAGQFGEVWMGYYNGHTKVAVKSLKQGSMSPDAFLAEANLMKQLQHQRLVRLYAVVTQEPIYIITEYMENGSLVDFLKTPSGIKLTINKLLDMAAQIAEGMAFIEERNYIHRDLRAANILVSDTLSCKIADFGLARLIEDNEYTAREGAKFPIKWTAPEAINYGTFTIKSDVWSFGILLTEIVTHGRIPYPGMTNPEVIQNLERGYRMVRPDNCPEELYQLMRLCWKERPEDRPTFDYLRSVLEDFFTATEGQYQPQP", "UniProt Q9P1W9, sequence (whole entry, looked up)": "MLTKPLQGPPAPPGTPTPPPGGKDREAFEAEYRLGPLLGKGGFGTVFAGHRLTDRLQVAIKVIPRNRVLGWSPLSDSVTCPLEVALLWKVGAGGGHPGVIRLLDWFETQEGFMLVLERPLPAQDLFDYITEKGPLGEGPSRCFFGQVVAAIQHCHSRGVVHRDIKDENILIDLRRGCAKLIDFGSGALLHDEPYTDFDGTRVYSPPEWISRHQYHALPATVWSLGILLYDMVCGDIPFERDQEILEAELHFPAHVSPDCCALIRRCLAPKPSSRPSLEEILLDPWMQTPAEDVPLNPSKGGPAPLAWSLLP", "UniProt P53778, sequence (whole entry, looked up)": "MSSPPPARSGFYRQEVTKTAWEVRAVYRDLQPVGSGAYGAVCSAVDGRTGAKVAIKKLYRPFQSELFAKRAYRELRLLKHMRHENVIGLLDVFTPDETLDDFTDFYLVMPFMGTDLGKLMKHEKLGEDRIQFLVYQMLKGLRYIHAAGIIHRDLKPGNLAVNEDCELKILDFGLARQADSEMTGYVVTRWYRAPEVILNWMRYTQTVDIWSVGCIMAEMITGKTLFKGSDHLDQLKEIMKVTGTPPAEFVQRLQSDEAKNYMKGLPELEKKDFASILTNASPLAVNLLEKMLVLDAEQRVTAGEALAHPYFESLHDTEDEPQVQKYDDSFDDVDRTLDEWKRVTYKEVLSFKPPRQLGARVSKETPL", "UniProt P06241, sequence (whole entry, looked up)": "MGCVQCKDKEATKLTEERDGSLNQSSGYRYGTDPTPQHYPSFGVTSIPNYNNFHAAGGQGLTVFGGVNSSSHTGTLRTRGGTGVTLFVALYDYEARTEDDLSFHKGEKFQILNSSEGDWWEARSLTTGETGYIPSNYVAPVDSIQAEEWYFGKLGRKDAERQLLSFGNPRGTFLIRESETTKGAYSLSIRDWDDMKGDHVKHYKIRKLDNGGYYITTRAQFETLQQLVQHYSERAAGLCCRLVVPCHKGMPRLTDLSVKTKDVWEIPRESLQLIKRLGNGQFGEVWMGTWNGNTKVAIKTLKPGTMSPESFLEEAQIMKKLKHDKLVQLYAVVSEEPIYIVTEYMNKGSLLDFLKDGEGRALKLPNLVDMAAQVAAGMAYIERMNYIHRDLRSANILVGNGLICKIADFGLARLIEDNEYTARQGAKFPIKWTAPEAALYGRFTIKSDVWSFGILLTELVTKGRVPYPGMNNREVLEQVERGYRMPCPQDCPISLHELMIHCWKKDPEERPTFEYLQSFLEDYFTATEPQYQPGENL", "UniProt Q9BYT3, sequence (whole entry, looked up)": "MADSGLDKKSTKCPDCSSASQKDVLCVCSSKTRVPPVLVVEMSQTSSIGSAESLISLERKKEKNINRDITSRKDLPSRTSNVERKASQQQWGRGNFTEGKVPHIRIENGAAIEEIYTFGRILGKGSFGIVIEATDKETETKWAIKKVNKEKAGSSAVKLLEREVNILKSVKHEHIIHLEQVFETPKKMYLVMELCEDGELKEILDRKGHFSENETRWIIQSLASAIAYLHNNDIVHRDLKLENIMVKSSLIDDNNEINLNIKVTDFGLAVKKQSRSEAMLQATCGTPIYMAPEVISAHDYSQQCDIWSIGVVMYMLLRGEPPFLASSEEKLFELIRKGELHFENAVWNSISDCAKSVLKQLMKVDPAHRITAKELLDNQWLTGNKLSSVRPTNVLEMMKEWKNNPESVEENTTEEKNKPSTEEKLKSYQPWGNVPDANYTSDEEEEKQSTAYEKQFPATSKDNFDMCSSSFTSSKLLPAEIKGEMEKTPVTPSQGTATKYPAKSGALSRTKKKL", "UniProt Q8N4C8, sequence (whole entry, looked up)": "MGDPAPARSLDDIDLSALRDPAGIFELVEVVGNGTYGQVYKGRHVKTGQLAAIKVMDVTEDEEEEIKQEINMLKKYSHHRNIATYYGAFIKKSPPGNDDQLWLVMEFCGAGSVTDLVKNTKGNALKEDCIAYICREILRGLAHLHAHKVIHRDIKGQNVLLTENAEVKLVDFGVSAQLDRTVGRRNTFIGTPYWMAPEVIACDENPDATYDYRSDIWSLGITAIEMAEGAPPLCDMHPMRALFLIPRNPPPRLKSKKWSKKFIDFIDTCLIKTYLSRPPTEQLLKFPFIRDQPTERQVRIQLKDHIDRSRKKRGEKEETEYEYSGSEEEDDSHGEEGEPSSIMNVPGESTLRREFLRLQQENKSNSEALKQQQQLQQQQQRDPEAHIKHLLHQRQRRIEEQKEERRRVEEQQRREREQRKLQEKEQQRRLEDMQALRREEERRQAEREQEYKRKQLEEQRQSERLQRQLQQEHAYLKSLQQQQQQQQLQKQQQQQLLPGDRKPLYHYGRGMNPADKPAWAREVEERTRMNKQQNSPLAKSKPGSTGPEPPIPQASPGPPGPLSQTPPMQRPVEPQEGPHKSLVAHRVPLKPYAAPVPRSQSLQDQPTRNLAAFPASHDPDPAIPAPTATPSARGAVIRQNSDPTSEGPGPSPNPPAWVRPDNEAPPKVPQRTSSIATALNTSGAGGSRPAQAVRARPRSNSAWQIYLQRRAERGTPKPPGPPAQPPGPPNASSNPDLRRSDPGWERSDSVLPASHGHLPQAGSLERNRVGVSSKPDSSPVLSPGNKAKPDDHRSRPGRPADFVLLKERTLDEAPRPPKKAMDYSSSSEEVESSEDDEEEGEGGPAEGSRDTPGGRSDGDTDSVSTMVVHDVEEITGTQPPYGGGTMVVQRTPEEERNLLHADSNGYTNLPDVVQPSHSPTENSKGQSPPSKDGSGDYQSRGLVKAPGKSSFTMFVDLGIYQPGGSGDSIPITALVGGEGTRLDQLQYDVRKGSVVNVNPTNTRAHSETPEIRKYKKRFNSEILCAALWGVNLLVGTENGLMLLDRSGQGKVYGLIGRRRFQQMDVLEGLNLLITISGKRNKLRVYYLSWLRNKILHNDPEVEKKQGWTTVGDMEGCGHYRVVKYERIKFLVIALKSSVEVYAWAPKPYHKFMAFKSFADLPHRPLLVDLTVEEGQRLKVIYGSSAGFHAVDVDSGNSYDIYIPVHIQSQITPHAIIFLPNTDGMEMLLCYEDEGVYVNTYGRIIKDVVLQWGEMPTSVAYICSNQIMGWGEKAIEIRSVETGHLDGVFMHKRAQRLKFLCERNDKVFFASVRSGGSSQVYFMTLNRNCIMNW", "UniProt O75914, sequence (whole entry, looked up)": "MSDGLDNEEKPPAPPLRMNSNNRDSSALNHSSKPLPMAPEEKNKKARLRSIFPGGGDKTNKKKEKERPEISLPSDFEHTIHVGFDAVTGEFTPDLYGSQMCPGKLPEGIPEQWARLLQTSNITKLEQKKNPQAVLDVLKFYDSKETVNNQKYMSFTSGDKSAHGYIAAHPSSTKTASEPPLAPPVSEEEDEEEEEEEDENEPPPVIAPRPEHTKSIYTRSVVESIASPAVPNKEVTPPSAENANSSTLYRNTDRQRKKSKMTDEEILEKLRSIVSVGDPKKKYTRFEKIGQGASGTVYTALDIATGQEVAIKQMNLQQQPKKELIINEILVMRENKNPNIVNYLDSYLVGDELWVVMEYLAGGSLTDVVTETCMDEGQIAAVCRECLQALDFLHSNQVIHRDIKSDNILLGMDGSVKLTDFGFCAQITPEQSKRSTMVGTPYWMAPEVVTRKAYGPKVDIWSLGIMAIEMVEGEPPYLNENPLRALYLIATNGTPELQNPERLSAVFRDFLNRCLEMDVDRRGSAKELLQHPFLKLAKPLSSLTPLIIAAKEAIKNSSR"}
{"data": "Series 1", "target": "Calcium/calmodulin-dependent protein kinase type II subunit alpha (CAMK2A, Homo sapiens, UniProt Q9UQM7)", "read-out": "enzyme activity", "action": "inhibitor", "tested at": "10 µM", "UniProt Q9UQM7, sequence (whole entry, looked up)": "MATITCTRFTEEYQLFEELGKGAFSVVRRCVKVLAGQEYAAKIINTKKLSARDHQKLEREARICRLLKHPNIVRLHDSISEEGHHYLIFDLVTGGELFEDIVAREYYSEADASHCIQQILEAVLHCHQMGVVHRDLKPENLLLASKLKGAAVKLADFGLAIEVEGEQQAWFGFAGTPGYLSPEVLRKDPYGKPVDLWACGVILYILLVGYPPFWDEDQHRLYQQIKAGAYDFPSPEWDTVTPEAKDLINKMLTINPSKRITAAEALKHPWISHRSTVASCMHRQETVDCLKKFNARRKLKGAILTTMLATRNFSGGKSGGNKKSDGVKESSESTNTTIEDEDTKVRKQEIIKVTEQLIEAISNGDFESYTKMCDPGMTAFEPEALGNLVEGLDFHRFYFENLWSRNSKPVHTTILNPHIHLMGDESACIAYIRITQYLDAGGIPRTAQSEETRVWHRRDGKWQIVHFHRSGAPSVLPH"}
{"SMILES": "CCNC(=NCCCC[C@H](NC(=O)[C@H](CC(C)C)NC(=O)[C@@H](CCCCN=C(NCC)NCC)NC(=O)[C@H](Cc1ccc(O)cc1)NC(=O)[C@H](CO)NC(=O)[C@@H](Cc1cccnc1)NC(=O)[C@@H](Cc1ccc(Cl)cc1)NC(=O)[C@@H](Cc1ccc2ccccc2c1)NC(C)=O)C(=O)N1CCC[C@H]1C(=O)N[C@H](C)C(N)=O)NCC", "inhibition [%]": -14}
{"SMILES": "OC[C@H]1O[C@@H](c2ccc(F)c(Cc3cc4ccccc4s3)c2)[C@H](O)[C@@H](O)[C@@H]1O", "inhibition [%]": -5}
{"SMILES": "COc1ccc(C(Cl)=C(c2ccc(OC)cc2)c2ccc(OC)cc2)cc1", "inhibition [%]": -7}
{"SMILES": "COc1cccc(OC)c1C(=O)O", "inhibition [%]": -57}
{"SMILES": "CCC1(c2ccccc2)C(=O)NCNC1=O", "inhibition [%]": 0}
{"SMILES": "COc1ccc(-c2oc3c(OC)c(OC)c(OC)c(OC)c3c(=O)c2OC)cc1OC", "inhibition [%]": -1}
{"SMILES": "C=C1C(=O)O[C@@H]2/C=C(/C)[C@@H](OC(C)=O)C/C=C(/C=O)C[C@@H](OC(=O)/C(C)=C/CO)[C@@H]12", "inhibition [%]": 0}
{"SMILES": "CCC(C)(C)c1ccc(CC(C)CN2C[C@@H](C)O[C@@H](C)C2)cc1 (stereo partly drawn)", "inhibition [%]": -2}
{"SMILES": "NCCCC(N)(C(=O)O)C(F)F (stereo not drawn)", "inhibition [%]": -13}
{"SMILES": "NC(CO)C(=O)NNCc1ccc(O)c(O)c1O (stereo not drawn)", "inhibition [%]": -10}
{"SMILES": "C/C1=C\\C(=O)c2c(C)coc2C/C(C)=C/CC1", "inhibition [%]": 13}
{"SMILES": "COc1cc2ccc(=O)oc2cc1O", "inhibition [%]": 36}
{"data": "Series 2", "Compound": "CO[C@H]1CC[C@H](CNc2ccc(S(=O)(=O)NC(=O)c3ccc(N4CCN(CC5=C(c6ccc(Cl)cc6)CC(C)(C)CC5)CC4)cc3Oc3cnc4[nH]ccc4c3)cc2[N+](=O)[O-])CC1", "read-out": "cell-free assay", "method": "competition with immobilised ligand", "tested at": "1 µM"}
{"target": "ERBB2 (Homo sapiens, UniProt P04626)", "remaining binding": "54%"}
{"target": "IRAK1 (Homo sapiens, UniProt P51617)", "remaining binding": "96%"}
{"target": "NTRK1 (Homo sapiens, UniProt P04629)", "remaining binding": "100%"}
{"target": "STK33 (Homo sapiens, UniProt Q9BYT3)", "remaining binding": "100%"}
{"target": "MINK1 (Homo sapiens, UniProt Q8N4C8)", "remaining binding": "88%"}
{"target": "TSSK1B (Homo sapiens, UniProt Q9BXA7)", "remaining binding": "67%"}
{"target": "MAP2K5 (Homo sapiens, UniProt Q13163)", "remaining binding": "66%"}
{"target": "PAK3 (Homo sapiens, UniProt O75914)", "remaining binding": "64%"}
{"target": "LCK (Homo sapiens, UniProt P06239)", "remaining binding": "73%"}
{"target": "MAPK12 (Homo sapiens, UniProt P53778)", "remaining binding": "47%"}
{"target": "MAP4K4 (Homo sapiens, UniProt O95819)", "remaining binding": "100%"}
{"target": "MAP3K2 (Homo sapiens, UniProt Q9Y2U5)", "remaining binding": "68%"}
{"target": "GRK3 (Homo sapiens, UniProt P35626)", "remaining binding": "79%"}
{"target": "PIM2 (Homo sapiens, UniProt Q9P1W9)", "remaining binding": "88%"}
{"target": "FYN (Homo sapiens, UniProt P06241)", "remaining binding": "97%"}
{"data": "Series 3", "cell line": "A-375", "tested at": "100 µM", "time": "18 h"}
{"SMILES": "Cc1ccc(-c2cc(C(F)(F)F)nn2-c2ccc(S(N)(=O)=O)cc2)cc1", "viability": "8.05%"}
{"SMILES": "CC(=O)OC(C)C[N+](C)(C)C (stereo not drawn)", "viability": "110%"}
{"SMILES": "CC(=O)O[C@]1(C(C)=O)CC[C@H]2[C@@H]3C=C(C)C4=CC(=O)CC[C@]4(C)[C@H]3CC[C@@]21C", "viability": "69.5%"}
{"SMILES": "CS(=O)(=O)OCCCCOS(C)(=O)=O", "viability": "97.7%"}
{"SMILES": "CN1CC(=O)N2[C@H](c3ccc4c(c3)OCO4)c3[nH]c4ccccc4c3C[C@@H]2C1=O", "viability": "101%"}
{"SMILES": "O=S(=O)(O)CCS", "viability": "90.8%"}
{"SMILES": "CC[C@@H]1/C=C(\\C)C[C@H](C)C[C@H](OC)[C@H]2O[C@@](O)(C(=O)C(=O)N3CCCC[C@H]3C(=O)O[C@H](/C(C)=C/[C@@H]3CC[C@H](Cl)[C@H](OC)C3)[C@H](C)[C@@H](O)CC1=O)[C@H](C)C[C@@H]2OC", "viability": "92.6%"}
{"SMILES": "CC(=O)NS(=O)(=O)c1ccc(NC(=O)c2ccccc2C(=O)O)cc1", "viability": "83.6%"}
{"SMILES": "O=C(NCCN1CCOCC1)c1ccc(Cl)cc1", "viability": "103%"}
{"SMILES": "CCCNC(=O)NS(=O)(=O)c1ccc(Cl)cc1", "viability": "106%"}
{"data": "Series 4", "target": "Cyclin-dependent kinase 6, with cyclin D1 (CDK6, Homo sapiens, UniProt Q00534)", "read-out": "enzyme activity", "action": "inhibitor", "tested at": "0.5 µM", "relative to": "control", "UniProt Q00534, sequence (whole entry, looked up)": "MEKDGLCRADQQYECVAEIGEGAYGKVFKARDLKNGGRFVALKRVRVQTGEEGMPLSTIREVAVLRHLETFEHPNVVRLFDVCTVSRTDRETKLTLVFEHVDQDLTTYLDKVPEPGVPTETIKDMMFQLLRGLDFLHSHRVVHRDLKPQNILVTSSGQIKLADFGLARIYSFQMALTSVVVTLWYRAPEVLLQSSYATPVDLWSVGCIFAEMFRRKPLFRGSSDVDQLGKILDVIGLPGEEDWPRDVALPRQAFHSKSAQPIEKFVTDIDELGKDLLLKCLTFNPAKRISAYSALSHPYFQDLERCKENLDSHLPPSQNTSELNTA"}
{"SMILES": "CC(C)(C)c1nc2c3cc[nH]c(=O)c3c3cc(F)ccc3c2[nH]1", "remaining activity [%]": 87.7}
{"SMILES": "Clc1ccc(Nc2nnc(Cc3ccncc3)c3ccccc23)cc1", "remaining activity [%]": 93}
{"SMILES": "NC(=O)c1ccc(-c2nc(-c3ccc4c(c3)OCCO4)c(-c3ccccn3)[nH]2)cc1", "remaining activity [%]": 106}
{"SMILES": "CNc1cc2c(Nc3cccc(Br)c3)ncnc2cn1", "remaining activity [%]": 82.2}
{"SMILES": "O=C1c2ccccc2-c2nc3nnnn3nc21", "remaining activity [%]": 59.6}
{"SMILES": "NC(=O)c1cccc(-c2cc(Nc3ccc(OC(F)(F)F)cc3)ncn2)c1", "remaining activity [%]": 99.1}
{"SMILES": "N#C/C(=C(/N)SC1C=CC=CC1)c1cccc(C(O)c2ccncc2)c1 (stereo not drawn)", "remaining activity [%]": 95.9}
{"SMILES": "CC(C)N(CCC(=O)c1ccc2ccccc2c1)Cc1ccccc1", "remaining activity [%]": 96.8}
{"SMILES": "O=c1c(-c2ccc(F)cc2)c(-c2ccncc2)[nH]n1-c1ccc(Cl)cc1", "remaining activity [%]": 92.3}
{"SMILES": "FC(F)(F)c1ccc(/C=C/c2nc(COc3ccc(CCCCn4ccnn4)cc3)co2)cc1", "remaining activity [%]": 95.4}
{"SMILES": "O=Nc1c(-c2c(O)[nH]c3ccccc23)[nH]c2ccccc12", "remaining activity [%]": 52.8}
{"SMILES": "CCCCc1c(-c2ccc(O)cc2)[nH]c2nccnc12", "remaining activity [%]": 61.6}
{"SMILES": "COc1cc2c(N3CCN(C(=O)Nc4ccc(OC(C)C)cc4)CC3)ncnc2cc1OCCCN1CCCCC1", "remaining activity [%]": 94.6}
{"SMILES": "O=C(O)/C=C/c1cc(Br)c(Br)c(Br)c1Br", "remaining activity [%]": 102}
{"SMILES": "CC(C)n1cnc2c(Nc3cccc(Cl)c3)nc(NCCO)nc21", "remaining activity [%]": 95.5}
{"SMILES": "N#CC(c1ccnc(NCCc2cccnc2)n1)c1nc2ccccc2s1 (stereo not drawn)", "remaining activity [%]": 89.7}
{"SMILES": "CCN(CC)CCCCN1c2ccccc2Oc2ccc(Cl)cc21", "remaining activity [%]": 98}
{"SMILES": "O=C(c1ccccc1)c1ccc(N2CCOCC2)cc1O", "remaining activity [%]": 97.8}
{"SMILES": "O=C1NC(=O)/C(=C/c2ccc3c(c2)OC(F)(F)O3)S1", "remaining activity [%]": 95.4}
{"SMILES": "COc1cc2c(Nc3ccc(Br)cc3F)ncnc2cc1OCC1CCN(C)CC1", "remaining activity [%]": 98.7}
{"SMILES": "C[C@@H](N)[C@H]1CC[C@H](C(=O)Nc2ccncc2)CC1", "remaining activity [%]": 95.1}
{"SMILES": "c1cc(-c2cnn3cc(-c4ccc(OCCN5CCCCC5)cc4)cnc23)ccn1", "remaining activity [%]": 21.2}
{"SMILES": "Nc1nc(Nc2ccc(S(N)(=O)=O)cc2)nn1C(=S)Nc1c(F)cccc1F", "remaining activity [%]": 2.89}
{"note": "For quick reference, copied from above (series 4):"}
{"SMILES": "N#CC(c1ccnc(NCCc2cccnc2)n1)c1nc2ccccc2s1 (stereo not drawn)", "remaining activity [%]": 89.7}
{"SMILES": "C[C@@H](N)[C@H]1CC[C@H](C(=O)Nc2ccncc2)CC1", "remaining activity [%]": 95.1}
{"SMILES": "CC(C)N(CCC(=O)c1ccc2ccccc2c1)Cc1ccccc1", "remaining activity [%]": 96.8}
{"SMILES": "CNc1cc2c(Nc3cccc(Br)c3)ncnc2cn1", "remaining activity [%]": 82.2}
{"SMILES": "CC(C)n1cnc2c(Nc3cccc(Cl)c3)nc(NCCO)nc21", "remaining activity [%]": 95.5}
{"SMILES": "O=c1c(-c2ccc(F)cc2)c(-c2ccncc2)[nH]n1-c1ccc(Cl)cc1", "remaining activity [%]": 92.3}
{"SMILES": "FC(F)(F)c1ccc(/C=C/c2nc(COc3ccc(CCCCn4ccnn4)cc3)co2)cc1", "remaining activity [%]": 95.4}
